Measurements from different studies.
Numbered parts are unrelated; each lists some results of a single study. Substitutions count along the parent as printed.

Block 1 — technique: protein-binding microarray; form: double-stranded DNA, one strand shown; medium: in vitro; concentration: not given; reading: higher = stronger binding
Target: Myc proto-oncogene protein, bHLH-zipper, MAX partner unstated (MYC, Homo sapiens, UniProt P01106, residues 368-449)
Chain of UniProt P01106 (368-449, looked up): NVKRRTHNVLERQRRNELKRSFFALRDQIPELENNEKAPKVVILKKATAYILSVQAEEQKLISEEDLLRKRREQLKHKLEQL
Setting: k-mer, scored over probes, only values ≥0.25
Oligonucleotide | E-score
ACACGTTC | 0.316
CTCGAGGC | 0.289
CGTGCTAG | 0.387
AGGGTGGG | 0.279
ACACGAGT | 0.372
TCGTGTCA | 0.34
CCGACCAC | 0.252
CACGTGGG | 0.495

Block 2 — target: NFE2L2, bZIP domain (human); technique: DHFR protein complementation; medium: yeast; baseline: wild-type JUN-FOS pair; reading: higher = stronger binding
Setting: single substitutions, most at no-binding floor
Starting sequence: JUN, bZIP domain (human); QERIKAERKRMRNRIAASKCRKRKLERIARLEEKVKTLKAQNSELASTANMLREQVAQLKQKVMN; partner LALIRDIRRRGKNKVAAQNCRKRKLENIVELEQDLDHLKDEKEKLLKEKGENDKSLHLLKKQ
Substitution | binding fitness [natural log]
L45T | -1.47
N42V | -1.43
Q41H | -1.62
V35G | -1.49
A46Y | -1.56
E32M | -1.2
V35P | -1.51
L45I | -1.45

Block 3 — technique: protein binding microarray; form: double-stranded DNA, one strand shown; medium: in vitro; concentration: not given; baseline: not given; reading: higher = stronger binding
Target: Histone acetyltransferase KAT6A, winged helix 2, GST fusion (KAT6A, Homo sapiens, UniProt Q92794, residues 85-181)
Setting: 8-mer, flanks averaged, mean of 2 arrays, mostly near background
Residues (chain): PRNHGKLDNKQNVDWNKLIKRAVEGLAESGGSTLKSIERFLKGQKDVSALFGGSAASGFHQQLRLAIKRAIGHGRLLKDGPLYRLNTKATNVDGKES
Oligonucleotide | E-score
CACGGGTC | -0.053
ACTTGGGG | -0.158
AATGAGTG | 0.017
CACTGCTG | -0.00095
CGATATTC | 0.0322
GGAAGACC | 0.00897
CCGCTGCG | 0.0966
CTGTTTGC | 0.0535

Other studies, line by line
Starting sequence: viral docking peptide; TSVRRALFTGGSD; partner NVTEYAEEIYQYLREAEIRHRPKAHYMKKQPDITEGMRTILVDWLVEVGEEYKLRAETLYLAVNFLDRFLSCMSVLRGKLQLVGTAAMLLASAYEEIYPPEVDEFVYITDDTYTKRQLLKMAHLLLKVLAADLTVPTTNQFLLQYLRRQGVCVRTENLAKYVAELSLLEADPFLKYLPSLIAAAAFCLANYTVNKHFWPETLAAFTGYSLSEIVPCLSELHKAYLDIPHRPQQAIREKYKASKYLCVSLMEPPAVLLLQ
Substitution | target | assay | test system | conditions | how to read | measurement | value
R5V | CCNA1, cyclin fold, Cln2 fusion (human) | yeast growth competition, sequencing | yeast | strong parent motif | baseline: not given, higher = stronger binding | normalised enrichment score | 0.277

A few entries again (block 2):
Substitution | binding fitness [natural log]
A46Y | -1.56
E32M | -1.2
V35P | -1.51
